# Measurements collected from several papers.
# Parts stem from different laboratories: compare values within a part only. Substitutions count along the parent as printed.
# UniProt Q8WTQ7, sequence (whole entry, looked up): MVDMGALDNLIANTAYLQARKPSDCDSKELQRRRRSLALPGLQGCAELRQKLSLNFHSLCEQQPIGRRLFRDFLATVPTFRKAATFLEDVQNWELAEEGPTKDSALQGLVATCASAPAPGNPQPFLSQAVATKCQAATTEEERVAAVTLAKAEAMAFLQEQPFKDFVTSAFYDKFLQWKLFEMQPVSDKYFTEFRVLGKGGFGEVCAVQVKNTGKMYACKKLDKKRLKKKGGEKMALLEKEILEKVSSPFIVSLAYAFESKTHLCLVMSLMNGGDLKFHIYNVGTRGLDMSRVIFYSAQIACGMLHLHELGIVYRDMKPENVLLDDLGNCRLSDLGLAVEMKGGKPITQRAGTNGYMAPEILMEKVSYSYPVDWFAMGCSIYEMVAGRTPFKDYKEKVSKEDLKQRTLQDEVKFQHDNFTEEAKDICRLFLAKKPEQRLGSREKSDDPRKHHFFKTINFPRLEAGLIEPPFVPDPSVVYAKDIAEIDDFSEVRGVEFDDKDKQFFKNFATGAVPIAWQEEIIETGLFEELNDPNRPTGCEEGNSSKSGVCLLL
# UniProt P52333, sequence (whole entry, looked up): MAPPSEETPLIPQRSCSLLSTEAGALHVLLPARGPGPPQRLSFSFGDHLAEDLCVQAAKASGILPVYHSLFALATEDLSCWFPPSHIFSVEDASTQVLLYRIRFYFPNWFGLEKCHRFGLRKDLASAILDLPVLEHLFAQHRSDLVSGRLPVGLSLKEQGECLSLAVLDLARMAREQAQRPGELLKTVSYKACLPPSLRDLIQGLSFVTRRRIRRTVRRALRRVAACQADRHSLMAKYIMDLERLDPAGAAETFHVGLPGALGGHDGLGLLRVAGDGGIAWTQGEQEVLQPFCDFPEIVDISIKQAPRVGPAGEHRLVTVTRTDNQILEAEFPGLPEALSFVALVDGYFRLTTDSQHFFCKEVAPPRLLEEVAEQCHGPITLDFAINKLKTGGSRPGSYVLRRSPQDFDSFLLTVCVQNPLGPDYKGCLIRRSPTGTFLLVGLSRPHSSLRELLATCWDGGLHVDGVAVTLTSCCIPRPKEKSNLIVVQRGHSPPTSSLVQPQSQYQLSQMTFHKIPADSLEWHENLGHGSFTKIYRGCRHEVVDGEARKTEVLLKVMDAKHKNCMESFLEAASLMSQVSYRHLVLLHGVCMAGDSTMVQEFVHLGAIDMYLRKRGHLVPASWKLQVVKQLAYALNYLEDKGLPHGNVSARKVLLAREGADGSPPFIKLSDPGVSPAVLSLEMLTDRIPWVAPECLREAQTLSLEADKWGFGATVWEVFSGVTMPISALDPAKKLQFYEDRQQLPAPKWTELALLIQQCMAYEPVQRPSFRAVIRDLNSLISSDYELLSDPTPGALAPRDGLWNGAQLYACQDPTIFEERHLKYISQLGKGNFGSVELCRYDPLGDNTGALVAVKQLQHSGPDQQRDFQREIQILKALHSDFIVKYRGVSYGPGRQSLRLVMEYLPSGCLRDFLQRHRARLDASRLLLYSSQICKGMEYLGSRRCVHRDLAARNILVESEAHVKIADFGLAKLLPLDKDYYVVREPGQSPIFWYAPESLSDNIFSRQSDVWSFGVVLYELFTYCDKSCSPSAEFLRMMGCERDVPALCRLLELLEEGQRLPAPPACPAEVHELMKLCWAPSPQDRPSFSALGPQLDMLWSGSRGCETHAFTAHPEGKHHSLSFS
# UniProt P78368, sequence (whole entry, looked up): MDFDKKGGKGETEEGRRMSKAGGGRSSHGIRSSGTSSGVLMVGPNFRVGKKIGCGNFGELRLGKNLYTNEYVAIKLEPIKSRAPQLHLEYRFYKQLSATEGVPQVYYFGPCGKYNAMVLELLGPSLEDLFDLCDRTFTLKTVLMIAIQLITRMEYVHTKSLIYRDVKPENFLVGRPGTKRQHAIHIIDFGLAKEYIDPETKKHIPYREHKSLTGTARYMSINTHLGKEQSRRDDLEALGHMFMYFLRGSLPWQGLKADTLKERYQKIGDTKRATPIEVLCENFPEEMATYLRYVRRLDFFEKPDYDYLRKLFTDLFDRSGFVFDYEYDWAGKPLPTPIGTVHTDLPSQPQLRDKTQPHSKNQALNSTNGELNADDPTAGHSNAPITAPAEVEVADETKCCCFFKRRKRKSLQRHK
# UniProt Q99558, sequence (whole entry, looked up): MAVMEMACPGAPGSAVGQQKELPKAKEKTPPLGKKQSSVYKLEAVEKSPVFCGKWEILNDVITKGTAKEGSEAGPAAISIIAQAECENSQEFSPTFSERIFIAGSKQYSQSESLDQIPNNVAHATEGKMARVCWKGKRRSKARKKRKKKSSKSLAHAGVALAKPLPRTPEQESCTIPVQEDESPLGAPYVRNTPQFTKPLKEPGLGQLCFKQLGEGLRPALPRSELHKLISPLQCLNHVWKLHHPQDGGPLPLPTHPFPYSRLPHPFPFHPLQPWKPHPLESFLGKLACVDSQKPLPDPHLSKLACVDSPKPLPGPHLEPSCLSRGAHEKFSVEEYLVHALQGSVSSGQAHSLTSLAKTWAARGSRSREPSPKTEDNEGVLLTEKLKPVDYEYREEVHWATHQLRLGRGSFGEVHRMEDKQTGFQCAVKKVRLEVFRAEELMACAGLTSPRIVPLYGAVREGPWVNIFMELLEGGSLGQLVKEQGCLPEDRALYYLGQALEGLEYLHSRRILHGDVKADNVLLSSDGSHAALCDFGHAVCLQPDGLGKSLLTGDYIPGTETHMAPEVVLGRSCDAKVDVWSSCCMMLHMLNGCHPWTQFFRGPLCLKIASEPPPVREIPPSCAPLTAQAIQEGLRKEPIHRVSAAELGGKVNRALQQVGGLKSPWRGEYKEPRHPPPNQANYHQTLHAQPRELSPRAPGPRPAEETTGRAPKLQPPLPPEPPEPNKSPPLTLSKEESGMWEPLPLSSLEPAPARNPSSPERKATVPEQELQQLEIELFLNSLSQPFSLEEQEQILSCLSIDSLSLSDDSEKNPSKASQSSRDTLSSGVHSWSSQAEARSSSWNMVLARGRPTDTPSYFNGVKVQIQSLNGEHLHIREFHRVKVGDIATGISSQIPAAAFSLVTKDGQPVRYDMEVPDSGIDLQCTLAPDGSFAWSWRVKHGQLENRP
# UniProt P54764, sequence (whole entry, looked up): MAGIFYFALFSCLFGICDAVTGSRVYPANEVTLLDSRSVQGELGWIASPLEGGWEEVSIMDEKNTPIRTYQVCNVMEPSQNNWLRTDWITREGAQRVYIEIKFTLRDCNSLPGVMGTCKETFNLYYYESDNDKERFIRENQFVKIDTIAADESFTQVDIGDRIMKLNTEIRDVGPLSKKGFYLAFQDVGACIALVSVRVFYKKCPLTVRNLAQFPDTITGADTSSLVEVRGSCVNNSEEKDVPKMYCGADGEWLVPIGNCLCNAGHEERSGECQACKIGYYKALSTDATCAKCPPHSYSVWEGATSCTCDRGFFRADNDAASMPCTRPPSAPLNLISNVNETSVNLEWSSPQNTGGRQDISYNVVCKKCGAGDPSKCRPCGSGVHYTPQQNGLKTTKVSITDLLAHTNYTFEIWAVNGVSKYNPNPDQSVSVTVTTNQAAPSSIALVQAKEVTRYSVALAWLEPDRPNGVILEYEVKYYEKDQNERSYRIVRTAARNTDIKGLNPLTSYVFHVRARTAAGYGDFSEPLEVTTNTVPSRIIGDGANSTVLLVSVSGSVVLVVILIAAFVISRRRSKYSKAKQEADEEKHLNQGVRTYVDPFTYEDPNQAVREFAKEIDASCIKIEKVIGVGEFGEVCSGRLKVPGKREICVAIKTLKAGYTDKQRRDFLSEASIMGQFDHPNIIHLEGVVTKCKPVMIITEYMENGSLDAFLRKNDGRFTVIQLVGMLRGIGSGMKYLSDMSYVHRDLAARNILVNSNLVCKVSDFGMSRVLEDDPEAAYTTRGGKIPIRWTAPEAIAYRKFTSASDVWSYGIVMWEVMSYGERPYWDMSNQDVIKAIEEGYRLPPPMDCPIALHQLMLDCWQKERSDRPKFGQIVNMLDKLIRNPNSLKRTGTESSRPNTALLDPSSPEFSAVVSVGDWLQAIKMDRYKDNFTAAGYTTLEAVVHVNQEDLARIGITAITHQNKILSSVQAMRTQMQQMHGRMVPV
# UniProt Q9H093, sequence (whole entry, looked up): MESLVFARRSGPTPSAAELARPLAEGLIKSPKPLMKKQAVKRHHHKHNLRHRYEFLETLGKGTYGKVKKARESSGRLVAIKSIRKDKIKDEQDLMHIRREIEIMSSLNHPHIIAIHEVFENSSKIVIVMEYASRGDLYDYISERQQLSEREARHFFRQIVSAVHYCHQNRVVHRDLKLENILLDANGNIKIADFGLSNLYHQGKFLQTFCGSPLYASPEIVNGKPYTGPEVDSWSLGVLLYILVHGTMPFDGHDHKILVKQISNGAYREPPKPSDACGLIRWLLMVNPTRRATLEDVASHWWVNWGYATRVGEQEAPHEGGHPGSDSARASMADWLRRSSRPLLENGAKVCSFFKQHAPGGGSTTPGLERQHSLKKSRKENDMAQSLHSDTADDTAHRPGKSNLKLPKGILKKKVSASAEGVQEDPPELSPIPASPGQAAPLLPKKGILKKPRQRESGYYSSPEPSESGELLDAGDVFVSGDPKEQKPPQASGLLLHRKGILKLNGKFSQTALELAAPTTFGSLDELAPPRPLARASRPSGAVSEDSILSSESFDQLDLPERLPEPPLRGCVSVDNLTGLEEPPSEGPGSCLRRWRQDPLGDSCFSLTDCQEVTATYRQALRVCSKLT
# UniProt P50750, sequence (whole entry, looked up): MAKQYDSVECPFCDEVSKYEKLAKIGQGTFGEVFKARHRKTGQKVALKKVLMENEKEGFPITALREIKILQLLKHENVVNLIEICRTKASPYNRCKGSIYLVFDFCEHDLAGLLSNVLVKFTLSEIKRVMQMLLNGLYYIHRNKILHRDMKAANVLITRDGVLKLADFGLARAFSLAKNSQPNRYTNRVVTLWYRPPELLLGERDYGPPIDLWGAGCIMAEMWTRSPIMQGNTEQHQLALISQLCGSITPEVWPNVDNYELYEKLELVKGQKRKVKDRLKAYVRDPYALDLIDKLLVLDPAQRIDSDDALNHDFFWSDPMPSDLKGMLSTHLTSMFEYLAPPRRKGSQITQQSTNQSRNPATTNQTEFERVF

# Block 1
# Compound: c1cc(-c2cnn3cc(-c4ccc(OCCN5CCCCC5)cc4)cnc23)ccn1
# Effect on: enzyme activity
# Action: inhibitor
# Concentration: 0.5 µM
# Relative to: control
target,remaining activity
"NEK6 (Homo sapiens, UniProt Q9HC98)",109%
"TBK1 (Homo sapiens, UniProt Q9UHD2)",57.2%
"CSNK1G3 (Homo sapiens, UniProt Q9Y6M4)",86.3%
"GSK3B (Homo sapiens, UniProt P49841)",79.6%
"MAP3K14 (Homo sapiens, UniProt Q99558)",111%
"CSNK1G2 (Homo sapiens, UniProt P78368)",74.4%
"ULK2 (Homo sapiens, UniProt Q8IYT8)",72.3%
"JAK3 (Homo sapiens, UniProt P52333)",97.7%
"MAP2K2 (Homo sapiens, UniProt P36507)",81.9%
"RPS6KA2 (Homo sapiens, UniProt Q15349)",81%
"GRK7 (Homo sapiens, UniProt Q8WTQ7)",92.8%
"MAP3K5 (Homo sapiens, UniProt Q99683)",98.4%

# Block 2
# Target: NFE2L1, bZIP domain (human)
# Method: DHFR protein complementation
# Sample: yeast
# Setting: single substitutions, most at no-binding floor
# Relative to: wild-type JUN-FOS pair
# Direction: higher = stronger binding
# Starting sequence: JUN, bZIP domain (human); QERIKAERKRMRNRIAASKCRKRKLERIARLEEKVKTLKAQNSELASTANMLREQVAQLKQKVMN; partner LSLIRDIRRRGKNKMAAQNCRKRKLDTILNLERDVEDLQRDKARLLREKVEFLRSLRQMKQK
Variant,binding fitness [natural log]
M51W,-1.48
A49C,-1.55
Q41R,-1.45
A57E,-1.32
T37N,-1.46
L38K,-1.57
A57Q,-1.29
A46L,-1.46

# Block 3
# Target: ABI1, truncated, D143A, DHFR fusion (Arabidopsis thaliana)
# Method: DHFR PCA, deep sequencing
# Sample: yeast
# Setting: methotrexate growth selection, single substitutions
# Added: (+)-ABA 0.0091 µM
# Relative to: wild-type fitted maximum
# Direction: higher = stronger binding
# Starting sequence: PYL1, truncated, DHFR fusion (Arabidopsis thaliana); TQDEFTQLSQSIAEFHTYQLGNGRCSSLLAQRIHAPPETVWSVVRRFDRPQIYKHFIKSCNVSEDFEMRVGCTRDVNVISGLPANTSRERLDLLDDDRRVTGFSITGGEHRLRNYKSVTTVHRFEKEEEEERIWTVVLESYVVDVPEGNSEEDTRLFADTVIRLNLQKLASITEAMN; partner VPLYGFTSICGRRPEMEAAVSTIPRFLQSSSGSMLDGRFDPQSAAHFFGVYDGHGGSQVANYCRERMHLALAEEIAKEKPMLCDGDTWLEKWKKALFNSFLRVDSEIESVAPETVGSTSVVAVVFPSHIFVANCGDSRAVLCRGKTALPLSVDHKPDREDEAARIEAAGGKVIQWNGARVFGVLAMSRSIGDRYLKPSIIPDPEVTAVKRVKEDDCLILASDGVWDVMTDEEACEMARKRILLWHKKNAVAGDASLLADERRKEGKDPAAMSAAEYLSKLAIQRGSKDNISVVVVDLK
Variant,relative binding score [%]
Y18G,-1.76
N165L,-2.07
A170W,-3.37
N77R,50.8
S87N,9.52
Q2A,55.3
S27L,1.32
E109I,-7.46

# Block 4
# Compound: CS(=O)(=O)c1cc(C2(NC(=O)c3cncc4c3cnn4-c3ccc(F)cc3)CC2)ccn1
# Effect on: cell-free assay
# Method: competition with immobilised ligand
# Concentration: 1 µM
target,remaining binding [%]
"NUAK2 (Homo sapiens, UniProt Q9H093)",100
"CDK9 (Homo sapiens, UniProt P50750)",91
"EPHA4 (Homo sapiens, UniProt P54764)",100
"MAST1 (Homo sapiens, UniProt Q9Y2H9)",100
"FYN (Homo sapiens, UniProt P06241)",55
